Measurements of several laboratories.
± marks the error that the study gave.

Compound | cell line | test | setting | scale | quantity | result
O=C(O)CC[C@H](NC(=O)N[C@@H](CCCCNC(=O)[C@H](Cc1ccc2ccccc2c1)NC(=O)[C@H]1CC[C@H](CNC(=O)CNC(=O)CNC(=O)CNC(=O)CN2CCN(CC(=O)O)CCN(C(CCC(=O)NCCC[P+](c3ccccc3)(c3ccccc3)c3ccccc3)C(=O)O)CCN(CC(=O)O)CC2)CC1)C(=O)O)C(=O)O (stereo partly drawn) [terbium-161 labelled] | PC-3 PIP | – | – | relative to: applied activity | mitochondrial uptake | 5.4 ± 0.1%
CC[C@H](C)[C@H](NC(=O)[C@H](CCCCN)NC(=O)[C@H](CCCCN)NC(=O)[C@H](C)NC(=O)[C@@H](NC(=O)[C@H](C)NC(=O)[C@H](CC(C)C)NC(=O)[C@H](CC(C)C)NC(=O)[C@H](C)NC(=O)[C@H](CCCCN)NC(=O)[C@H](CC(C)C)NC(=O)[C@H](CC(N)=O)NC(=O)[C@@H](N)CC(C)C)C(C)C)C(=O)N[C@@H](CC(C)C)C(N)=O | MDA-MB-435S | MTT | 24 h | – | IC50 | 27.7 µM
C=CCc1cc2c(c(OC)c1OC)OCO2 | HCT-116 | cell growth or viability | 72 h | – | GI50 | > 250 µM
CC[C@H](C)[C@@H]1NC(=O)[C@H](CCCCN)NC(=O)[C@H](CCCCN)NC(=O)[C@H](C)NC(=O)[C@H](C(C)C)NC(=O)[C@H](C)NC(=O)[C@H](CC(C)C)NC(=O)[C@H](CC(C)C)NC(=O)[C@H](C)NC(=O)[C@H](CCCCN)NC(=O)[C@H](CC(C)C)NC(=O)[C@H](CC(N)=O)NC(=O)[C@H](CC(C)C)NC(=O)[C@@H](N)CSSC[C@@H](C(N)=O)NC(=O)[C@H](CC(C)C)NC1=O | U251MG | MTT | 24 h | – | IC50 | 8.56 µM
Nc1ccc(/C=C/C(=O)N2CCc3c(oc4c(-c5ccc(F)cc5)cc(-c5ccc(C(=O)N6CCC(F)(F)CC6)cn5)cc34)C2)cn1 | MIA PaCa-2 | annexin V/PI flow cytometry | 0.5 µM, 72 h | – | apoptotic cells | 25.9%
CC[C@H](C)[C@@H]1NC(=O)CNC(=O)[C@@H]2Cc3c([nH]c4ccccc34)SC[C@H](NC(=O)CNC1=O)C(=O)N[C@@H](CC(=O)NCc1cn(CCN)nn1)C(=O)N1C[C@H](O)C[C@H]1C(=O)N[C@@H]([C@@H](C)[C@@H](O)CO)C(=O)N2 | CHO | cell growth or viability, MTS | 72 h | – | EC50 | ~5 µM
Cc1[nH]c2cc(Cl)cc(Cl)c2c1CCN | SNU-1 (KRAS G12D) | cell viability, CellTiter-Glo | 72 h | – | IC50 | 33 ± 1.6 µM
O=C(O)CC[C@H](NC(=O)N[C@@H](CCCCNC(=O)[C@H](Cc1ccc2ccccc2c1)NC(=O)[C@H]1CC[C@H](CNC(=O)CN2CCN(CC(=O)O)CCN(C(CCC(=O)NCCC[P+](c3ccccc3)(c3ccccc3)c3ccccc3)C(=O)O)CCN(CC(=O)O)CC2)CC1)C(=O)O)C(=O)O (stereo partly drawn) [terbium-161 labelled] | PC-3 PIP | – | concentration not given, efflux | – | cell retention of activity | 76%
C/C1=C\CC[C@@]2(C)O[C@H]2[C@H]2OC(=O)C(C)[C@@H]2CC1 (stereo partly drawn) | NCI/ADR-RES | cell growth, inhibitor, Alamar blue | – | – | IC50 | > 500 µM

Repeated from above:
Compound | cell line | test | setting | scale | quantity | result
CC[C@H](C)[C@@H]1NC(=O)CNC(=O)[C@@H]2Cc3c([nH]c4ccccc34)SC[C@H](NC(=O)CNC1=O)C(=O)N[C@@H](CC(=O)NCc1cn(CCN)nn1)C(=O)N1C[C@H](O)C[C@H]1C(=O)N[C@@H]([C@@H](C)[C@@H](O)CO)C(=O)N2 | CHO | cell growth or viability, MTS | 72 h | – | EC50 | ~5 µM
